{"data": "Published values of several laboratories", "note": "Each line is one published result; not all experiments were run side by side. Several values in a cell are separate wells, animals, samples, runs or records. Numbers after ± are the reported error."}
{"SMILES": "Cc1ncsc1-c1ccc(C(C)NC(=O)C2CC(O)CN2C(=O)C(NC(=O)CCCCCCCCCCN2CCCC(Nc3ncc(Cl)c(Nc4ccccc4S(=O)(=O)C(C)C)n3)C2)C(C)(C)C)cc1 (centres unmarked)", "target or system": "22Rv1", "test": "RNA-seq, item: POLR1A mRNA", "conditions": "concentration not given", "scale": "reference: DMSO", "quantity": "log2 fold change", "result": -1.19}
{"SMILES": "CC(C)(C)c1nc(-c2cccc(NS(=O)(=O)c3c(F)cccc3F)c2F)c(-c2ccnc(N)n2)s1.Cc1[nH]c2ccccc2c1CCNCc1ccc(/C=C/C(=O)NO)cc1", "target or system": "C13", "test": "annexin V/PI flow cytometry", "conditions": "concentration not given, 48 h", "scale": "reference: untreated", "quantity": "late apoptotic cells", "result": "3.9 ± 1.2%"}
{"SMILES": "Cc1cc(Cl)cc(-c2ccnc3cc(CN4C(=O)C5C(C4=O)C5(C)C)sc23)c1C[C@@H]1CNCCO1 (some centres unmarked)", "target or system": "CHP-212 parental (wild-type USP7)", "test": "PI flow cytometry", "conditions": "1 µM, 24 h", "quantity": "cells in G1 phase", "result": "77.3% and 74.1% and 69.2%"}
{"SMILES": "CCN(CC)CC(=O)Nc1cccc(-n2cc(-c3ccc4ccc(-c5cn(-c6cccc(NC(=O)CN(CC)CC)c6)nn5)cc4c3)nn2)c1", "target or system": "RCC4", "test": "PCR angiogenesis array, item: CCL2", "conditions": "5 x IC50, 2 h, normoxia", "scale": "reference: untreated", "quantity": "fold regulation", "result": 1.51}
{"SMILES": "CC(=O)OC[C@H]1O[C@@H](n2cc(CSc3nc4ccccc4n3Cc3cn([C@@H]4O[C@H](COC(C)=O)[C@@H](OC(C)=O)C(OC(C)=O)[C@H]4OC(C)=O)nn3)nn2)[C@H](OC(C)=O)C(OC(C)=O)[C@@H]1OC(C)=O (stereo in doubt)", "target or system": "Caco-2", "test": "MTT", "conditions": "125 ppm", "quantity": "cytotoxicity", "result": "89.8%"}
{"SMILES": "Cn1ncc(-c2ccc3c(=O)[nH]nc(CN)c3c2)c1-c1c(F)c(Cl)cc(OC2CC2)c1C#N", "target or system": "SU-DHL-1", "test": "cell viability, inhibitor, CellTiter-Glo", "conditions": "120 h, baseline-subtracted", "quantity": "IC50", "result": "20 nM"}
{"SMILES": "CN1CCCNC(=O)c2cccc(c2)C(=O)NCCCN(C)CCCNc2cccc3c2C(=O)c2cccc(c2C3=O)NCCC1", "target or system": "SAS", "test": "RNA-Seq, item: SAFB2 mRNA", "conditions": "1 µM, 6 h", "scale": "reference: untreated cells", "quantity": "log2 fold change", "result": 0.584}
{"SMILES": "Cc1cc(C)nc(SCC(=O)Nc2ncc(Cc3cccc(OCc4cn(-c5ccc(Cl)cc5)nn4)c3)s2)n1", "target or system": "PC-3M-luc", "test": "colony formation, colony forming", "conditions": "1 µM", "quantity": "inhibition", "result": "17 ± 9.9%"}
{"SMILES": "CN(C)Cc1nc(Nc2ccc(-c3cnc4cc(F)ccn34)c3c2C(=O)NC3)ccc1C1CCOC1 (centres unmarked)", "target or system": "mouse BMDC", "test": "flow cytometry", "conditions": "10 µM", "quantity": "CD80-positive cells", "result": "68%"}
{"SMILES": "CN(C)c1ccc(-n2cc(COC(=O)[C@@]3(C)C=C(C(=O)OC(C)(C)C)C(=O)CC3)nn2)cc1", "target or system": "AP-1 reporter HEK293", "test": "AP-1 reporter gene, luciferase reporter", "conditions": "1 µM, 6 h, together with: PMA 6 ng/mL", "scale": "higher = more transcription", "quantity": "luminescence", "result": "10100 a.u."}
{"SMILES": "CC(C)c1ccc(N(C)c2ccc3c(c2)OCC[C@H]3CNc2cnccc2C(=O)O)cc1", "target or system": "HEP3B217", "test": "cell viability, CellTiter-Glo", "system": "liver", "conditions": "7 days", "quantity": "IC50", "result": "129 nM"}
{"SMILES": "CCc1ccc(OCc2nnc(SC3CCCC3=O)n2C(C)c2ccccc2)cc1 (centres unmarked)", "target or system": "HEK293T FOPFlash-transfected", "test": "viability, PrestoBlue", "conditions": "10 µM, 24 h", "quantity": "toxicity", "result": "26.4%"}
{"SMILES": "CCN(C(=O)c1cc(F)ccc1Oc1nncnc1N1CCC2(C1)CN([C@H](CCCN(C)CCOC)C(C)C)C2)C(C)C", "target or system": "Caco-2", "test": "cell growth or viability", "conditions": "72 h", "quantity": "GI50", "result": "> 10000 nM"}
{"SMILES": "Cc1ccncc1.[Cl-].[Cl-].[Ru+2].c1cc(-c2ccc3cccnc3n2)nc(-c2ccc3cccnc3n2)c1.c1ccc2cc3nc4c5cccnc5c5ncccc5c4nc3cc2c1", "target or system": "A-375", "test": "resazurin", "conditions": "together with: light 633 nm, 20 mW, 100 J/cm2", "quantity": "EC50", "result": "1480 nM"}
{"SMILES": "Fc1cncc(-c2ccc3[nH]c4ncnc(N[C@H]5CC[C@H](N6CCOCC6)CC5)c4c3c2)c1", "target or system": "TMD8 ibrutinib-resistant", "test": "immunoblot", "conditions": "concentration not given, 24 h", "quantity": "c-MYC level", "result": "decreased"}
{"SMILES": "COc1ccc(C([O-])=CC(=O)c2ccc(C(C)(C)C)cc2)cc1.[Ru+2].c1ccc(-c2ccnc3c2ccc2c(-c4ccccc4)ccnc23)cc1.c1ccc(-c2ccnc3c2ccc2c(-c4ccccc4)ccnc23)cc1", "target or system": "HL-60", "scale": "reference: dark IC50 over light IC50", "quantity": "phototoxicity index", "result": 2}
{"SMILES": "CC#CC#C/C=C1/O[C@@]2(CCCCO2)[C@@H](O)[C@@H]1OC(C)=O", "target or system": "RAW264.7", "test": "Western blot", "conditions": "concentration not given, together with: LPS", "quantity": "ERK phosphorylation", "result": "decreased"}
{"SMILES": "CCOc1cncc(-c2ccc(NC(=O)C3(c4ccnc(NS(=O)(=O)C5CC5)n4)CCOCC3)nc2)n1", "target or system": "NCI-H322M", "test": "cell growth or viability, ATP luminescence", "conditions": "72 h", "quantity": "IC50", "result": "1380 nM"}
{"SMILES": "C[n+]1ccc(/C=N/NC(=O)c2cccc(C(=O)N/N=C/c3cc[n+](C)c4ccccc34)c2)c2ccccc21", "target or system": "hp2 hairpin duplex DNA", "test": "FRET melting", "conditions": "1 µM", "quantity": "ΔTm", "result": "0.2 ± 0.1 °C"}
{"SMILES": "CC(C)(C)c1cc(-c2ccc3cc4ccccc4nc3n2)nc(-c2ccc3cc4ccccc4nc3n2)c1.Cc1ccncc1.[Cl-].[Cl-].[Ru+2].c1ccc2cc3nc4c5cccnc5c5ncccc5c4nc3cc2c1", "target or system": "A-375", "conditions": "visible light 100 J/cm2", "scale": "reference: dark EC50 over light EC50", "quantity": "phototherapeutic index", "result": 8}
{"SMILES": "C=CC(=O)N1[C@H](c2ccc3c(c2)OCO3)c2[nH]c3ccccc3c2C[C@@H]1C(=O)NC1CC1", "target or system": "rat DRG neurons", "conditions": "0.004572 µM, 48 h, together with: vincristine 40 nM", "quantity": "neuron degeneration", "result": "83.3% and 83%"}
{"SMILES": "CC(C)(COP(=O)(O)OP(=O)(O)OC[C@H]1O[C@@H](n2cnc3c(N)ncnc32)[C@H](O)[C@@H]1OP(=O)(O)O)[C@@H](O)C(=O)NCCC(=O)NCCSCCC(=O)N[C@@H](CO)C(=O)NCC(=O)N[C@@H](CCCNC(=N)N)C(=O)NCC(=O)N[C@@H](CCCCN)C(=O)NCCCC[C@H](NC(=O)CC[C@@H]1NC(=O)[C@@H](CCCNC(=N)N)NC(=O)[C@H](CCCNC(=N)N)NC(=O)[C@@H](CCCNC(=N)N)NC(=O)[C@H](CCCNC(=N)N)NC(=O)[C@H](Cc2csc3ccccc23)NC(=O)[C@@H](Cc2ccccc2)NC(=O)[C@H](Cc2ccccc2)NC1=O)C(N)=O", "target or system": "A549", "test": "vimentin expression, Western blot", "conditions": "10 µM, 2 days", "quantity": "inhibition", "result": "~40%"}
{"SMILES": "O=C(Nc1ccc(Sc2ccc3c(/C=C/c4ccccn4)n[nH]c3c2)cc1)C1CCCN1 (centres unmarked)", "target or system": "Ba/F3 TEL-VEGFR1", "test": "cell growth, CCK-8", "quantity": "GI50", "result": "4380 nM"}
{"SMILES": "CNS(=O)(=O)Nc1nccc(Cc2c(C)c3ccc(Oc4ncccc4F)cc3oc2=O)c1F", "target or system": "M059K", "test": "cell viability, CellTiter-Glo", "conditions": "7 days", "quantity": "IC50", "result": "> 1000 nM"}
{"SMILES": "C=C1CC2(C(=O)OC)C=C(C(=O)OC(C)(C)C)C(=O)C1C2 (centres unmarked)", "target or system": "AP-1 reporter HEK293", "test": "AP-1 reporter gene, luciferase reporter", "conditions": "10 µM, 6 h, together with: PMA 6 ng/mL", "scale": "reference: PMA alone", "quantity": "luminescence relative to PMA", "result": 0.334}
{"SMILES": "COC(=O)c1cc(NC2=NC(=O)C(=Cc3ccc(N(C)C)cc3)S2)ccc1OC(C)=O", "target or system": "MCF7", "test": "item: MMS22L mRNA", "conditions": "0.81 µM (IC50), 24 h", "scale": "reference: DMSO", "quantity": "fold change", "result": 0.214}
{"SMILES": "Cn1ncc2cc(-c3cncc(Cl)c3N3CCC4(CCNC4=O)CC3)ccc21", "target or system": "LS174T", "test": "gene expression, microarray, item: SLC2A4 mRNA", "conditions": "concentration not given, 4 h", "scale": "reference: untreated cells", "quantity": "log2 fold change", "result": 1.53}
{"SMILES": "CC(C)(C)c1cc(-c2ccc3cccnc3n2)nc(-c2ccc3cccnc3n2)c1.COc1ccncc1.[Cl-].[Cl-].[Ru+2].c1ccc2cc3nc4c5cccnc5c5ncccc5c4nc3cc2c1", "target or system": "A-375", "test": "resazurin", "conditions": "together with: light 523 nm, 20 mW, 100 J/cm2", "quantity": "EC50", "result": "1430 nM"}
{"SMILES": "COc1ccc(NC(=O)c2ccc3[nH]c(-c4ccc(N(C)C)cc4)nc3c2)cn1", "target or system": "HCT-116", "test": "item: CXCL1-luc luciferase reporter", "conditions": "concentration not given, unit not given", "scale": "reference: DMSO", "quantity": "reporter activity", "result": 3.71}
{"SMILES": "C=CC(=O)N1CCCC(n2c(=O)c3ncccc3n(Cc3ccc(Oc4ccccc4)cc3)c2=O)C1 (centres unmarked)", "target or system": "Rec1", "test": "item: MET", "conditions": "concentration not given", "scale": "reference: untreated", "quantity": "log2 fold change", "result": 1.01}
{"SMILES": "O=C(N/N=C/c1cc[n+](Cc2ccccc2)c2ccccc12)C(=O)N/N=C/c1cc[n+](Cc2ccccc2)c2ccccc12", "target or system": "hp2 hairpin duplex DNA", "test": "FRET melting", "conditions": "1 µM, together with: ds26 10 µM", "quantity": "ΔTm", "result": "0.8 ± 0.3 °C"}
{"SMILES": "COc1ccccc1-c1ccncc1C(=O)Nc1nnc(OCc2ccc(Cl)cc2)s1", "target or system": "DLD-1 BRCA2 wild-type", "test": "immunofluorescence", "conditions": "10 µM, 96 h", "quantity": "γH2AX foci-positive nuclei", "result": "24.7%"}
{"note": "For quick reference, copied from above:"}
{"SMILES": "CC(C)(C)c1nc(-c2cccc(NS(=O)(=O)c3c(F)cccc3F)c2F)c(-c2ccnc(N)n2)s1.Cc1[nH]c2ccccc2c1CCNCc1ccc(/C=C/C(=O)NO)cc1", "target or system": "C13", "test": "annexin V/PI flow cytometry", "conditions": "concentration not given, 48 h", "scale": "reference: untreated", "quantity": "late apoptotic cells", "result": "3.9 ± 1.2%"}
{"SMILES": "Cc1cc(Cl)cc(-c2ccnc3cc(CN4C(=O)C5C(C4=O)C5(C)C)sc23)c1C[C@@H]1CNCCO1 (some centres unmarked)", "target or system": "CHP-212 parental (wild-type USP7)", "test": "PI flow cytometry", "conditions": "1 µM, 24 h", "quantity": "cells in G1 phase", "result": "77.3% and 74.1% and 69.2%"}
{"SMILES": "CCN(CC)CC(=O)Nc1cccc(-n2cc(-c3ccc4ccc(-c5cn(-c6cccc(NC(=O)CN(CC)CC)c6)nn5)cc4c3)nn2)c1", "target or system": "RCC4", "test": "PCR angiogenesis array, item: CCL2", "conditions": "5 x IC50, 2 h, normoxia", "scale": "reference: untreated", "quantity": "fold regulation", "result": 1.51}
